Published values from different studies.
Parts stem from different laboratories: compare values within a part only.
UniProt P07948, sequence (whole entry, looked up): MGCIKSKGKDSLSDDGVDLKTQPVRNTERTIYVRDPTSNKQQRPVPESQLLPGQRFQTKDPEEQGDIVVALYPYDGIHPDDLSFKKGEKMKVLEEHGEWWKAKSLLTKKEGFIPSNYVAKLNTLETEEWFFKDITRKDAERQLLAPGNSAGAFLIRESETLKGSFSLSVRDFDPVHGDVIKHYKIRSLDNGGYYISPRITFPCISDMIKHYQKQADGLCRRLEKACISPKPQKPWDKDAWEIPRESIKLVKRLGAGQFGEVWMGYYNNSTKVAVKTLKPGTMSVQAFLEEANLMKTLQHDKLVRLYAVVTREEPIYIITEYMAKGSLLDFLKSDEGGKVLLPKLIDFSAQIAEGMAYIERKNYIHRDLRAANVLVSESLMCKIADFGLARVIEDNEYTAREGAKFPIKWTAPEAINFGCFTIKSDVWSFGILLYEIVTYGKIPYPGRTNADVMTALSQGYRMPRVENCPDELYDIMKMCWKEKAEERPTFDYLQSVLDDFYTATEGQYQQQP
UniProt O14936, sequence (whole entry, looked up): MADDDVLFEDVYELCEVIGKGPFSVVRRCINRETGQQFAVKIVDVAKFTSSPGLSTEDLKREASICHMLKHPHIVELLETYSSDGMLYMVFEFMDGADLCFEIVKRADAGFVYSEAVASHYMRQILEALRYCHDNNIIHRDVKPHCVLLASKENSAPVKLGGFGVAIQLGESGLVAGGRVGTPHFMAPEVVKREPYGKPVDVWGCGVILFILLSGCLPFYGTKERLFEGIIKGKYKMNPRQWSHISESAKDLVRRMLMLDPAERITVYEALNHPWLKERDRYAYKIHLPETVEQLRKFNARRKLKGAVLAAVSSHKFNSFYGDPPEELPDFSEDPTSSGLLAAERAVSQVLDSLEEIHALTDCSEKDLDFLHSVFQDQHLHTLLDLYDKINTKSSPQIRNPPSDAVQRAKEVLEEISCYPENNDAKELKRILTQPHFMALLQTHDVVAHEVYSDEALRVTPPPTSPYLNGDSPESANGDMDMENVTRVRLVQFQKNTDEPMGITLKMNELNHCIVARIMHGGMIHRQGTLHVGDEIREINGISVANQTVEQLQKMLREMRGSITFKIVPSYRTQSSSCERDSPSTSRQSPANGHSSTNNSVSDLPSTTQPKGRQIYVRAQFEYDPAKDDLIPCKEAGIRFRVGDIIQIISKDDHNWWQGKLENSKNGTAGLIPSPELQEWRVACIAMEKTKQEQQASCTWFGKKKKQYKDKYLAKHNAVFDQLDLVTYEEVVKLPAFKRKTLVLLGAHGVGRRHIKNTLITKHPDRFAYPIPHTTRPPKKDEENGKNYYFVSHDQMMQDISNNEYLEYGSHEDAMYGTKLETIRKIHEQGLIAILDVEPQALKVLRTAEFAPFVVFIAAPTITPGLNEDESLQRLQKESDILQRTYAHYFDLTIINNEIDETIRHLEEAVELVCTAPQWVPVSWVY

Study 1
Target: RING finger protein unkempt homolog, zinc fingers 1-6, GST-SBP tag (UNK, Homo sapiens, UniProt Q9C0B0, residues 30-357)
Technique: RNA Bind-n-Seq
Form: RNA
Sample: in vitro
Concentration: not given
Notes: RNA with constant flanks, ends assumed
Baseline: input RNA pool
Direction: higher = stronger binding
All sequences stand within: GGGAGUUCUACAGUCCGACGAUC … CAACAGAGGAUUGAGCAUCA
Residues (chain): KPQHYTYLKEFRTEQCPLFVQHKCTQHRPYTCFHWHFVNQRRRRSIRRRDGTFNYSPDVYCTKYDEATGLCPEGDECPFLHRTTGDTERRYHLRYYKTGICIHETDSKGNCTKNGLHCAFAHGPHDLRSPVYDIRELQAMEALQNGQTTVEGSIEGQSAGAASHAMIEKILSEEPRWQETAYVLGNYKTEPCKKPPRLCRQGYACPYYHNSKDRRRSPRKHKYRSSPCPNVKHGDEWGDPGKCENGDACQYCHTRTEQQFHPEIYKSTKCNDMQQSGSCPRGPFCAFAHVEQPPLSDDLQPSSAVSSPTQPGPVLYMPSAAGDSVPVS
Strand	bound/input enrichment
UCAUUUUUUGCUGGGGAUAAAAAAGAAGCACACAAACUAAAGGAGGACUUUCGACUGCAUUUCCGAAAUAUUUCAAGAAUUAUGGAUUGUGUUGGUUGUUUUAAAUGUCGUCUGUGGGGA	0.739 ratio
CAUAGUGAACGAGAAAUGAGGAACACACUAGAAAAAUUUACUGCAAGCAUCCAGCGUUUAACCGAGCAAGAAGAAUAUUUGAAUGUCCAAGUUAAGGAACUUGAAGCUAAUGUACUUGCU	0.882 ratio
GAUCGUCAAUCGAUGUAGGAGGGCAGUGGUCUUGGGUUGAGUCAGAAAGCCUGGGAGGAAACCCGAGAGGAAGCCAGCCAGGACGUGACACUCCUUCAUGGUGUCUGCUUCAGCUCCUAC	0.0822 ratio
GCUGUGGAUUCAGAGAUACUGGAGAUGCCACCUGAAAAAGCAGAUGGAGUAGUGGAGGGGACCGAUGUAAAUGGACCAAAAGCACAGCUGAUGUUGCGGUAUCCAGAUGGAAAAAGGGAA	0.39 ratio
AUAAGCUGCACUAGGUAUUCACAAAUGGAUCCAAGAUAAAAUCAUUUUUCUGAAACUUUUUUCCGUGAGAUGGUUUUCCAGCAAAUAGCAUUUACAAGAUAAAGUGAUUAUGUUUUUAAC	3.55 ratio
GGUCCGCCAAUAGAAAAUGGAUUCUAUUAUGACAUGUACCUCGAAGAAGGGGGUGUGUCCCGCAAUGAUUUCUCUUCUCUGGAGGCUUUGUGUAAGAAAAUCAUUAAAGAAAAACAAGCU	0.37 ratio
AGUGGGAAUAUCACUUUUGAUGAGAUUGUCAACAUUGCUCGACAGAUGCGGCACCGAUCCUCCGCCAGAGAACUCUCUGGAACCAUUAAAGAGAUCCUGGGGACUGCCCAGUCAGUGGGC	0.201 ratio
CUCAAUGCCUUAACCAAGCGUGUCUCCCCACUGAUAGGACGUUUUGUUCCCUUCGCUGCUGCCGCUGCUGCUAACUGCAUUAACAUCCCACUGAUGAGACAAAGGGAGCUGAAGGUUGGU	0.246 ratio

Study 2
Target: PABPC1L2, full length, GST fusion (mouse, UniProt A0ABA7IW68)
Technique: RNAcompete
Form: RNA
Sample: in vitro
Concentration: 20 nM
Notes: 7-mer, probes averaged, single round
Baseline: mean of 7-mers
Direction: higher = stronger binding
Residues (chain): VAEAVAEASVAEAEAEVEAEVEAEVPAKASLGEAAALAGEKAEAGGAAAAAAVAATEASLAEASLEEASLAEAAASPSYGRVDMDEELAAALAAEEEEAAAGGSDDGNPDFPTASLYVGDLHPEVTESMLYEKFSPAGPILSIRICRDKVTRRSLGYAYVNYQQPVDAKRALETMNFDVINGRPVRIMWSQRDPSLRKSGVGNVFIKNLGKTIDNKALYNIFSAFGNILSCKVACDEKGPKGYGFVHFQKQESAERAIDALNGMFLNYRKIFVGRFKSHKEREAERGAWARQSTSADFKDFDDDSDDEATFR
Strand	7-mer Z-score
UUGUGCU	-0.228
AUGUCUG	-0.15
UAGUAGA	0.00798
CCGCCAC	-0.284
AGCUACA	-0.0844
GUUUCCC	-0.469
UGUGGGC	-0.0264
CCUCCUA	-0.318

Mixed results
Compound	target	assay	conditions	how to read	endpoint	result
CC(=O)O/N=C1/C(c2c(O)[nH]c3cc(Br)ccc23)=Nc2ccccc21	Tyrosine-protein kinase Lyn, isoform B (LYN, Homo sapiens, UniProt P07948)	enzyme activity, inhibitor	0.5 µM	baseline: control	remaining activity	52.4%
C[C@@]1(Cc2ccc(C#N)cc2)C(=O)N(c2cc(Cl)cc(Cl)c2)c2ncc(C(=O)NC3(c4nc(C5CCC5)no4)CC3)n21	CASK (Homo sapiens, UniProt O14936)	cell-free assay, competition with immobilised ligand	1 µM	–	remaining binding	100%

For quick reference, copied from above (study 2):
Strand	7-mer Z-score
CCGCCAC	-0.284
GUUUCCC	-0.469
